# Literature values, collected from citations in different studies.
# Lines come from different studies, so protocols differ. ± marks the error that the study gave.
SMILES,target or system,assay,test system,setting,measurement,value
C[C@H](NCc1ccc(OCc2cccc(F)c2)cc1)C(N)=O,TTX-sensitive sodium channel,sodium current,hippocampal neurons,holding potential -60 mV,IC50,33 µM
CCC(CC)COC(=O)[C@H](C)N[P@](=O)(OC[C@H]1O[C@@](C#N)(c2ccc3c(N)ncnn23)[C@H](O)[C@@H]1O)Oc1ccccc1,SARS-CoV-2,cytopathic effect,USA_WA1/2020,,IC50,10 µM
CC(C)(C)[C@H](NC(=O)C(F)(F)F)C(=O)N1C[C@H]2[C@@H]([C@H]1C(=O)N[C@H](C#N)C[C@@H]1CCNC1=O)C2(C)C,SARS-CoV-2,viral replication,Caco-2,,EC90,0.3 ± 0.06 µM
CCCC[C@H](NC(=O)[C@@H]1[C@@H]2[C@H](CN1C(=O)[C@@H](NC(=O)NC1(CS(=O)(=O)C(C)(C)C)CCCCC1)C(C)(C)C)C2(C)C)C(=O)C(=O)NC1CC1,SARS-CoV-2,cytopathic effect,Caco-2,10 µM,inhibition,8%
Nc1ncnc2c1ncn2[C@@H]1O[C@H](COP(=O)(O)OP(=O)(O)OP(=O)(O)O)[C@@H](O)[C@H]1O,"Replicase polyprotein 1ab, nsp12 with nsp7/nsp8 (rep, Severe acute respiratory syndrome coronavirus 2, UniProt P0DTD1)",substrate,,templating base U,Km,320 ± 50 µM
O=C(c1cc(=O)[nH]c2ccccc12)N1CCN(c2ccc(Cl)c(Cl)c2)CC1CN1CCOCC1 (stereo not drawn),SARS-CoV-2 3CL protease,"enzyme activity, inhibitor",,,IC50,0.15 µM
C=CCN(Cc1ccccc1C(=O)NCc1ccccc1)Cc1ccc2c(c1C(=O)O)OCO2,"Gag-Pol polyprotein, integrase catalytic core domain (gag-pol, Human immunodeficiency virus 1, UniProt P12497, C1203S/F1286D/F1332H)","binding, SPR",,,Kd,1760 µM
Cc1cccc(C)c1OCC(=O)N[C@@H](Cc1ccccc1)[C@@H](O)C[C@H](Cc1ccccc1)NC(=O)[C@H](C(C)C)N1CCCNC1=O,SARS-CoV-2,cytopathic effect,USA_WA1/2020,,IC50,12.6 µM
C[C@H](NC(=O)[C@@H](c1cccnc1)N(C(=O)c1ccco1)c1ccc(-c2ccccc2)cc1)c1ccccc1,human cathepsin L,"enzyme activity, inhibitor",,,IC50,11 µM

# Repeated from above:
SMILES,target or system,assay,test system,setting,measurement,value
C=CCN(Cc1ccccc1C(=O)NCc1ccccc1)Cc1ccc2c(c1C(=O)O)OCO2,"Gag-Pol polyprotein, integrase catalytic core domain (gag-pol, Human immunodeficiency virus 1, UniProt P12497, C1203S/F1286D/F1332H)","binding, SPR",,,Kd,1760 µM
